Published values from different studies.
Lines come from different studies, so protocols differ. Several values in a cell are separate wells, animals, samples, runs or records. ± marks the error that the study gave.

`CC[n+]1cccc2cc(/C=N/NC(=O)c3ccc4ccc5ccc(C(=O)N/N=C/c6ccc7c(ccc[n+]7CC)c6)nc5c4n3)ccc21` has a ΔTm of 28.4 ± 0.7 °C (myc22 MYC G4-DNA parallel; FRET melting; 1 µM, K1 buffer, DNA 0.2 µM, together with: ds26 10 µM).
`CCC(=O)N(C)c1ccc(Cl)c(Cl)c1` gave an inhibition of less than 10% (GABA receptor, non-selective; radioligand binding; 10 µM).
For `C=CC(=O)Nc1cc(-c2nn(C3CCN(CCNC(=O)[C@H](C)CCC45CC6CC(CC(C6)C4)C5)CC3)c3ncnc(N)c23)ccc1Oc1ccccc1`, the inhibition was -12.9% (casein kinase 1 delta and epsilon; KiNativ; 2 µM).
For `CN(C)CCOc1cc(NC(=O)c2cccc(C(=O)Nc3cc(OCCN(C)C)c4ccccc4n3)n2)nc2ccccc12`, the delta Tm was 0.3 ± 0.2 K (double-stranded DNA; FRET melting; 1 µM, pH 7.4, 60 mM potassium, together with: oligonucleotide 200 nM).
`COC1CN([C@H]2CC[C@H]([C@@]3(C)Oc4c(Cl)cc(C(=O)NCc5c(SC)cc(C)[nH]c5=O)c(C)c4O3)CC2)C1` — result for “log2 fold change”: 0.639 (RNA-seq, refers to: CRIM1 mouse homolog; mouse, HT-1376 xenograft, whole blood; dose not given; baseline: vehicle).
`O=C1NC2(CC2)COc2ncc(F)cc2[C@H]2COCCN2c2ccn3ncc1c3n2` has a revertant colonies of 81 ± 5 revertants/plate (Salmonella typhimurium; Ames test; TA100; 150 µg/plate, 48 h, together with: without S9).
With `COc1cc(Nc2nc(C)cc(-c3cnn4nc(OC)ccc34)n2)cc(C(F)(F)F)c1` the remaining binding was 81% (FLT3 ITD mutant, human; KINOMEscan binding; 1000 nM; baseline: control).
`Fc1ccc(Nc2nc(NC3CCCCC3)c3ccccc3n2)cc1F` gave a maximal inhibition of 5.7% (β2AR/β1AR TM5 chimera; β-arrestin2 recruitment, antagonist, BRET; baseline: isoprenaline maximal response).
The ΔTm of `CN1CCCNC(=O)CC2(CCCCC2)CC(=O)NCCCN(C)CCCNc2cccc3c2C(=O)c2cccc(c2C3=O)NCCC1` is reported as less than 0.5 °C (double-stranded DNA; DNA thermal stabilisation, CD melting; 4.5 µM, pH 7.4, together with: 1.5 µM DNA, 100 mM KCl).
For `C=CC(=O)Nc1cccc(Cn2ncc3cnc(Nc4cnn(CCOC)c4)nc32)c1`, “percent of control” read 43% (FGFR3 human; binding, KINOMEscan; 100 nM; lower = stronger binding).
The ΔTm of `C[n+]1cccc2cc(/C=N/NC(=O)c3ccc4ccc(C(=O)N/N=C/c5ccc6c(ccc[n+]6C)c5)nc4n3)ccc21` is reported as 16.1 ± 1.2 °C (myc22 MYC G4-DNA parallel; FRET melting; 1 µM, K1 buffer, DNA 0.2 µM, together with: ds26 10 µM).
For `CNC(=O)C1CCCN(C(=O)C2CC3CCC2N3C(=O)[C@@H]2C[C@@H](O)CN2C(=O)NCc2cccc(Cl)c2F)C1` (mixture of isomers), the remaining activity was 102% (CYP2C19 (Homo sapiens, UniProt P33261); enzyme activity, inhibitor, time-dependent inhibition; 0.617 µM, preincubated without NADPH; baseline: negative control).
`C=C(NC(=O)c1csc(-c2nc3c(cc2O)-c2nc(cs2)C(=O)NC(C(C)O)C(=O)NC(=C(C)OC)c2nc(cs2)C(=O)NC2c4nc(cs4)C(=O)NC(COC(=O)c4c5c6c(cccc6n4O)COC(=O)C(OC4CC(C)(O)C(N(C)C)C(C)O4)C2OC5)c2nc-3cs2)n1)C(N)=O` (centres unmarked) gave a half-life of 2.24 ± 0.42 h (Sprague-Dawley rat, both sexes, plasma; intravenous infusion, 2 mg/kg single dose).
`NCCOc1cc(NC(=O)c2cc(Cl)cc(C(=O)Nc3cc(OCCN)c4ccccc4n3)n2)nc2ccccc12` gave a delta Tm of 0 K (double-stranded DNA; FRET melting; 1 µM, pH 7.4, 60 mM potassium, together with: oligonucleotide 200 nM).
For `CC(C)C[C@H](NC(=O)[C@H](Cc1ccc(O)cc1)NC(=O)[C@@H](CCCNC(=N)N)NC(=O)[C@@H](CO)NC(=O)[C@H](Cc1ccccc1)NC(=O)[C@H](CC1CCCCC1)NC(=O)[C@H](CC(=O)O)NC(=O)CN1CCN(CC(=O)O)CCN(CC(=O)O)CCN(CC(=O)O)CC1)C(=O)N[C@@H](Cc1c[nH]c2ccccc12)C(=O)N[C@@H](CO)C(=O)O` [copper-64 labelled], the activity concentration was 3880 Bq/mL and 1440 Bq/mL and 5630 Bq/mL (human, gall bladder; concentration not given, 3 h).
`CCCCCCc1cccc([C@H](O)C[C@H](CO)NC(=O)CCCCCOc2ccc3ccccc3c2)c1` — result for “SM/ceramide ratio C22”: 17 ,0 (ceramide transfer protein (CERT), human; cellular CERT activity, HPLC-MS/MS lipidomics; HeLa; 1 µM, 24 h).
`C=CC(=O)N1[C@@H](c2ccc3c(c2)OCO3)c2[nH]c3ccccc3c2C[C@H]1C(=O)N1CCN(C)CC1` has a relative co-enrichment of 175% (human cyclin E1 N112C-3xFLAG:CDK2; co-IP with TMT proteomics, refers to: PNN; concentration not given, Q9H307; baseline: wild type DMSO).
`c1ccc(-c2n[nH]cc2-c2ccnc3ccccc23)nc1` — result for “log2 fold change”: -0.04 (PKH3 (Candida albicans); kinase binding, MIB/MS competition; Candida albicans lysate; 10 µM; baseline: DMSO).
For `CC(C)OCCOCc1ccc(OCC(O)CN(N=O)C(C)C)cc1` (centres unmarked), “revertant fold increase” read 0.9 fold (Salmonella typhimurium; Ames test; TA98; 1580 µg/plate, 30 % rat S9; baseline: solvent control).
For `C[n+]1ccc(/C=N/NC(=O)c2cccc(C(=O)N/N=C/c3cc[n+](C)c4ccccc34)c2)c2ccccc21`, the ΔTm was 11.6 ± 0.2 °C (myc22 MYC G4-DNA parallel; FRET melting; 1 µM, K1 buffer, DNA 0.2 µM, together with: ds26 10 µM).
`CCN(CC)CC#CCNc1ccnc2cc(Cl)ccc12` has a revertants of 5 revertants/well and 4 revertants/well (Salmonella typhimurium; mini-Ames test; TA97a; 125.0 µg/well, without S9).
`C[n+]1cc(/C=N/NC(=O)c2cncc(C(=O)N/N=C/c3cc4ccccc4[n+](C)c3)n2)cc2ccccc21` gave a ΔTm of 15.4 ± 0.2 °C (myc22 MYC G4-DNA parallel; FRET melting; 1 µM, K1 buffer, DNA 0.2 µM, together with: ds26 10 µM).
The tracer uptake of `CC[C@H](C)[C@H](NC(=O)C[C@H](NC(=O)CN1CCN2CCN(CC1)CC(=O)[O][Al]([18F])[O]C(=O)C2)C(=O)O)C(=O)N[C@H]1CCc2cccc3c2N(C1=O)[C@H](C(=O)NCc1cn[nH]n1)C3` is reported as 1.91 %ID/g (MC-38 tumour model; host not given, lung; 30 min, tumour-bearing).
`Cc1ncsc1-c1ccc(C(C)NC(=O)C2CC(O)CN2C(=O)C(NC(=O)CCCCCCCCCCN2CCCC(Nc3ncc(Cl)c(Nc4ccccc4S(=O)(=O)C(C)C)n3)C2)C(C)(C)C)cc1` (centres unmarked): “log2 fold change” -2.38 (22Rv1; RNA-seq, refers to: ZNF324B mRNA; concentration not given; baseline: DMSO).
The inhibition of `Cc1[nH]nc2c1N=C(c1ccccc1Cl)c1cnc(N3CCOCC3)cc1N2` is reported as 39% (sodium channel site 2, rat; radioligand binding; 10 µM).
For `Fc1ccc(Nc2nc(NC3CCCCC3)c3cc(Br)ccc3n2)cc1F`, the pIC50 was 6.9 (β2AR/β1AR TM5 chimera; β-arrestin2 recruitment, antagonist, BRET; together with: isoprenaline 1 µM).
The ΔTm of `O=C(N/N=C/c1cc[n+](Cc2ccccc2)c2ccccc12)C(=O)N/N=C/c1cc[n+](Cc2ccccc2)c2ccccc12` is reported as 4.9 ± 0.1 °C (myc22 MYC G4-DNA parallel; FRET melting; 1 µM, K1 buffer, DNA 0.2 µM, together with: ds26 10 µM).
`CCCCCCCCCCCC(=O)N[C@H](CO)C[C@@H](O)c1ccccc1`: “HexCer 24:1 amount” 21400 pmol/sample and 21100 pmol/sample and 19300 pmol/sample (ceramide transfer protein (CERT), human; cellular CERT activity, HPLC-MS/MS lipidomics; HeLa; 1 µM, 24 h, normalised to cell number).
`CC1(C)OCCc2cc(C(=O)N3CCC(c4nc(-c5ccccc5)n[nH]4)CC3)ccc21`: IC50 “no inhibition” (FSP1 F15A; resorufin formation, inhibitor; together with: NADH, resazurin).
`O=C(N/N=C/c1cc[n+](Cc2ccccc2)c2ccccc12)c1cccc(C(=O)N/N=C/c2cc[n+](Cc3ccccc3)c3ccccc23)c1` gave a ΔTm of 6.8 ± 0.5 °C (myc22 MYC G4-DNA parallel; FRET melting; 1 µM, K1 buffer, DNA 0.2 µM, together with: ds26 10 µM).
With `CNS(=O)(=O)Nc1nccc(Cc2c(C)c3ccc(Oc4ncccc4F)cc3oc2=O)c1F` the IC50 was greater than 1 µM (UACC-2087; cell viability, CellTiter-Glo; 7 days).
For `O=C(N/N=C/c1cc[n+](CC2CC2)c2ccccc12)c1cccc(C(=O)N/N=C/c2cc[n+](CC3CC3)c3ccccc23)c1`, the ΔTm was 11.7 ± 0.3 °C (myc22 MYC G4-DNA parallel; FRET melting; 1 µM, K1 buffer, DNA 0.2 µM, together with: ds26 10 µM).
For `Nc1ncc(-c2cc(-c3cnn(CC(F)(F)F)c3)ncc2F)nc1C(=O)NC1CNCC(F)C1` (centres unmarked), the remaining binding was 73% (WNK3; KINOMEscan; 1 µM; baseline: DMSO control).
For `O=C(N/N=C/c1cc[n+](CC2CC2)c2ccccc12)c1cc(C(=O)N/N=C/c2cc[n+](CC3CC3)c3ccccc23)ncn1`, the ΔTm was 5.6 ± 0.3 °C (myc22 MYC G4-DNA parallel; FRET melting; 1 µM, K1 buffer, DNA 0.2 µM, together with: ds26 10 µM).
Under protein interaction, `CC(C)(O)c1ccn2c(-c3ccc(F)c(-c4ccc(F)cc4C#N)c3)cnc2c1F` is recorded as “increased” (GABAA receptor α1 G251D human; proximity ligation, refers to: γ2 subunit; hiPSC-derived GABAergic neurons α1 G251D; 5 µM, 24 h, together with: hispidulin 10 µM).
`Cc1nn(-c2cccc(N)c2)c(=O)c2cnc(Nc3ccc(N4CCNCC4)cc3)nc12` has an IC50 of greater than 10 µM (DYRK1B (Homo sapiens, UniProt Q9Y463); kinase activity, inhibitor, SelectScreen kinase profiling).
`CCCCCCc1cccc(C(O)CC(CO)NC(=O)CCCCCCCCCCNC(C)=O)c1` (centres unmarked): “SM/ceramide ratio C18” 26 ,0 and 20 ,0 (ceramide transfer protein (CERT), human; cellular CERT activity, HPLC-MS/MS lipidomics; HeLa; 1 µM, 24 h).
For `O=C1C2CC3CC1CC(C(=O)N1CCN(c4ccc([N+](=O)[O-])c5ncccc45)CC1)(C3)C2`, “revertant fold increase” read 0.8 (Salmonella typhimurium; Ames test; TA1535; 0.13 µg/well, with S9; baseline: vehicle).

Some of these lines once more:
`CCCCCCc1cccc([C@H](O)C[C@H](CO)NC(=O)CCCCCOc2ccc3ccccc3c2)c1` — result for “SM/ceramide ratio C22”: 17 ,0 (ceramide transfer protein (CERT), human; cellular CERT activity, HPLC-MS/MS lipidomics; HeLa; 1 µM, 24 h).
`C=CC(=O)N1[C@@H](c2ccc3c(c2)OCO3)c2[nH]c3ccccc3c2C[C@H]1C(=O)N1CCN(C)CC1` has a relative co-enrichment of 175% (human cyclin E1 N112C-3xFLAG:CDK2; co-IP with TMT proteomics, refers to: PNN; concentration not given, Q9H307; baseline: wild type DMSO).
`c1ccc(-c2n[nH]cc2-c2ccnc3ccccc23)nc1` — result for “log2 fold change”: -0.04 (PKH3 (Candida albicans); kinase binding, MIB/MS competition; Candida albicans lysate; 10 µM; baseline: DMSO).
For `CC(C)OCCOCc1ccc(OCC(O)CN(N=O)C(C)C)cc1` (centres unmarked), “revertant fold increase” read 0.9 fold (Salmonella typhimurium; Ames test; TA98; 1580 µg/plate, 30 % rat S9; baseline: solvent control).
For `C[n+]1ccc(/C=N/NC(=O)c2cccc(C(=O)N/N=C/c3cc[n+](C)c4ccccc34)c2)c2ccccc21`, the ΔTm was 11.6 ± 0.2 °C (myc22 MYC G4-DNA parallel; FRET melting; 1 µM, K1 buffer, DNA 0.2 µM, together with: ds26 10 µM).
`CCN(CC)CC#CCNc1ccnc2cc(Cl)ccc12` has a revertants of 5 revertants/well and 4 revertants/well (Salmonella typhimurium; mini-Ames test; TA97a; 125.0 µg/well, without S9).
